{"data": "Results collected from several papers", "note": "Each numbered part is a random draw from the data of one study; scales do not carry over between parts. Positions count from the first letter of the parent shown."}
{"data": "Study 1", "target": "CCND1, cyclin fold, Cln2 fusion (human)", "method": "yeast growth competition, sequencing", "medium": "yeast", "setting": "weak parent motif", "reference": "not given", "direction": "higher = stronger binding", "parent": "PPP1R3F docking peptide (human); VAPRRVLFADEAL; partner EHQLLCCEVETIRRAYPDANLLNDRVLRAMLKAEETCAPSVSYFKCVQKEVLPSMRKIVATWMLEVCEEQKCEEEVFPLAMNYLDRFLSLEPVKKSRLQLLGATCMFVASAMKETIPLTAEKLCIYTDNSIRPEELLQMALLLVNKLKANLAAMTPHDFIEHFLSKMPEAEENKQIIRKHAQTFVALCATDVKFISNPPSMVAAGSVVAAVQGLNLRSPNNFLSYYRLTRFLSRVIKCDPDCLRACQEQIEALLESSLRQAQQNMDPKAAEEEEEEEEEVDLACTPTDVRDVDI"}
{"Variant": "VAARRVLFADEAL [P3A]", "normalised enrichment score": 1.44}
{"Variant": "VAPRRVLFAAEAL [D10A]", "normalised enrichment score": 0.047}
{"Variant": "VAPRRALFADEAL [V6A]", "normalised enrichment score": -0.0992}
{"Variant": "VAPARVLFADEAL [R4A]", "normalised enrichment score": 0.876}
{"Variant": "VAPRKVLFADEAL [R5K]", "normalised enrichment score": -0.138}
{"Variant": "VAPRRVAFADEAL [L7A]", "normalised enrichment score": 0.264}
{"data": "Study 2", "target": "ABI1, truncated, D143A, DHFR fusion (Arabidopsis thaliana)", "method": "DHFR PCA, deep sequencing", "medium": "yeast", "setting": "methotrexate growth selection, single substitutions", "with": "(+)-ABA 2500 µM", "reference": "wild-type fitted maximum", "direction": "higher = stronger binding", "parent": "PYL1, truncated, DHFR fusion (Arabidopsis thaliana); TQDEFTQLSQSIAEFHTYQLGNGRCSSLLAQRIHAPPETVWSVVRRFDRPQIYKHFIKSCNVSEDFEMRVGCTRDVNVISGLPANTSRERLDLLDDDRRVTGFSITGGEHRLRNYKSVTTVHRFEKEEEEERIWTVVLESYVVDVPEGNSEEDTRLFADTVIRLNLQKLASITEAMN"}
{"Variant": "I12D", "relative binding score": "71.9%"}
{"Variant": "E128G", "relative binding score": "107%"}
{"Variant": "L156F", "relative binding score": "91.8%"}
{"Variant": "N177E", "relative binding score": "96.9%"}
{"Variant": "D144H", "relative binding score": "79.7%"}
{"Variant": "S9E", "relative binding score": "101%"}
{"Variant": "A30K", "relative binding score": "102%"}
{"Variant": "E125W", "relative binding score": "96.8%"}
{"Variant": "L169F", "relative binding score": "9.05%"}
{"Variant": "C60Y", "relative binding score": "54.4%"}
{"Variant": "L29H", "relative binding score": "103%"}
{"Variant": "W134Y", "relative binding score": "109%"}
{"Variant": "T173Y", "relative binding score": "81.3%"}
{"Variant": "K168Y", "relative binding score": "86.2%"}
{"Variant": "S104Q", "relative binding score": "82.8%"}
{"Variant": "N114R", "relative binding score": "101%"}
{"Variant": "S9V", "relative binding score": "94.4%"}
{"Variant": "N61S", "relative binding score": "96.7%"}
{"Variant": "V143N", "relative binding score": "38.7%"}
{"Variant": "T17E", "relative binding score": "102%"}
{"data": "Study 3", "target": "Interferon regulatory factor 7, full length, phosphomimetic (IRF7, Homo sapiens, UniProt Q92985, residues 1-503, S471D/S472D/S475D/S476D/S477D/S483D/S484D/S487D)", "method": "protein-binding microarray", "form": "double-stranded DNA, one strand shown", "medium": "in vitro", "concentration": "2200 nM top", "setting": "60-bp whole probe", "with": "salmon DNA 0.4 mg/ml", "reference": "random background probes", "direction": "higher = stronger binding", "constant ends, left off below": "GCCTAGCAC … GTCTTGATTCGCTTGACGCTGCTG", "Construct (chain)": "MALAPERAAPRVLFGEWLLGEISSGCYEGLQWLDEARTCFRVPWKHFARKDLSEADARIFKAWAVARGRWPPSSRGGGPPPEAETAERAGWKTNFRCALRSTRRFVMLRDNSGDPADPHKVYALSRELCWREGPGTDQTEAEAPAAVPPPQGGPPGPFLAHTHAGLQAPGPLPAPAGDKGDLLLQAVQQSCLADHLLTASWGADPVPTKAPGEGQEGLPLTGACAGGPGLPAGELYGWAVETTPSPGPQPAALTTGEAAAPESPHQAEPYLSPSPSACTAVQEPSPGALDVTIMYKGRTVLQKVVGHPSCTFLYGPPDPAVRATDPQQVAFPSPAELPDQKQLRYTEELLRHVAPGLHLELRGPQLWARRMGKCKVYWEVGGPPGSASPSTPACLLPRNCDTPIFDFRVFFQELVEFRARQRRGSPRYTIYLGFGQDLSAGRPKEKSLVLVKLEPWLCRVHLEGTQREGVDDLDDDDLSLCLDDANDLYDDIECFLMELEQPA"}
{"Oligonucleotide": "TTAGATTTCAGACTGGTTTAGTGCTAG", "fitted relative affinity [z-score]": 0.0597}
{"Oligonucleotide": "GCCGGTTTCCTTATCCTGACGTGCTAG", "fitted relative affinity [z-score]": 3.95}
{"Oligonucleotide": "GACGAACGGGGGTTTCGAGACGTGCTA", "fitted relative affinity [z-score]": 1.94}
{"Oligonucleotide": "TTACGTTCCGGTTTCGGTTAGTGCTAG", "fitted relative affinity [z-score]": 9.27}
{"Oligonucleotide": "GACGGTTTCGGGATTGGGGACGTGCTA", "fitted relative affinity [z-score]": 5.35}
{"Oligonucleotide": "TTAGGTTCCGGATTCGGTTAGTGCTAG", "fitted relative affinity [z-score]": 3.41}
{"Oligonucleotide": "TTATGTTCCCTTTTCCTTTAGTGCTAG", "fitted relative affinity [z-score]": 3.75}
{"Oligonucleotide": "GTAGGTATCGACACTGGGTTAGTGCTA", "fitted relative affinity [z-score]": -0.0992}
{"Oligonucleotide": "AACGGTTTCGGGTTTCGGGACGTGCTA", "fitted relative affinity [z-score]": 9.96}
{"Oligonucleotide": "TTCTCTTTTATTTTTTTTATGTGCTAG", "fitted relative affinity [z-score]": 2.65}
{"Oligonucleotide": "CTCTGTCCCTGTTTCTACTGGTGCTAG", "fitted relative affinity [z-score]": 2.72}
{"Oligonucleotide": "TTAGGTCTCAGTCTCGGTTAGTGCTAG", "fitted relative affinity [z-score]": 0.668}
{"Oligonucleotide": "GGATTGCAACCCCTCAAAAAGTGCTAG", "fitted relative affinity [z-score]": 0.589}
{"Oligonucleotide": "GAGGGTTTCGACACTGGGGACGTGCTA", "fitted relative affinity [z-score]": 0.962}
{"Oligonucleotide": "ACCCCAAAGAGGGGCAGTGTGTGCTAG", "fitted relative affinity [z-score]": -0.484}
{"Oligonucleotide": "TTAGGACTGGGGATCGGTTAGTGCTAG", "fitted relative affinity [z-score]": -0.473}
{"Oligonucleotide": "GACGGGTCCGGTTTCGGGACGTGCTAG", "fitted relative affinity [z-score]": 2.84}
{"Oligonucleotide": "TCTTTTTGCTTTCTTTATGCGTGCTAG", "fitted relative affinity [z-score]": 3.84}
{"Oligonucleotide": "TTAGATACCGGGTTTCGATTAGTGCTA", "fitted relative affinity [z-score]": 2.93}
{"data": "Single results of other studies"}
{"Molecule": "PhoQ, residues 284 288 289 292 302 303 SLGVVW", "target": "PhoP, residues 12 14 15 18 19 FWNTL (Escherichia coli, UniProt P23836)", "test": "Sort-seq, item: YFP reporter", "test system": "E. coli", "conditions": "PhoQ-PhoP variant library, with: 10 µM Mg2+", "scale": "reference: high Mg2+ state, higher = stronger signaling", "endpoint": "fold induction", "result": 17.8}
{"note": "For quick reference, copied from above (study 2):"}
{"Variant": "L29H", "relative binding score": "103%"}
{"Variant": "T173Y", "relative binding score": "81.3%"}
{"Variant": "L156F", "relative binding score": "91.8%"}
{"Variant": "E125W", "relative binding score": "96.8%"}
{"Variant": "C60Y", "relative binding score": "54.4%"}
